Measurements gathered from unrelated publications.
Each line is one published result; not all experiments were run side by side. “And” joins repeats or separate records; there may be more than shown. ± marks the error that the study gave.
Sequence of UniProt Q7M759 (whole entry, looked up): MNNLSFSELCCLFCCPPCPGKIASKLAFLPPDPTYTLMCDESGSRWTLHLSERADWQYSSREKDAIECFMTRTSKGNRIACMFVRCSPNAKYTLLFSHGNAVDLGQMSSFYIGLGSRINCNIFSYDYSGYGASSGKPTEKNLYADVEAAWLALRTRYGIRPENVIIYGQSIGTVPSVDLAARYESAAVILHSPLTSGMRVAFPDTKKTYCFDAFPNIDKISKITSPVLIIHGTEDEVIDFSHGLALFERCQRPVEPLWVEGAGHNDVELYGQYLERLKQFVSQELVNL
Sequence of UniProt Q5XJY4 (whole entry, looked up): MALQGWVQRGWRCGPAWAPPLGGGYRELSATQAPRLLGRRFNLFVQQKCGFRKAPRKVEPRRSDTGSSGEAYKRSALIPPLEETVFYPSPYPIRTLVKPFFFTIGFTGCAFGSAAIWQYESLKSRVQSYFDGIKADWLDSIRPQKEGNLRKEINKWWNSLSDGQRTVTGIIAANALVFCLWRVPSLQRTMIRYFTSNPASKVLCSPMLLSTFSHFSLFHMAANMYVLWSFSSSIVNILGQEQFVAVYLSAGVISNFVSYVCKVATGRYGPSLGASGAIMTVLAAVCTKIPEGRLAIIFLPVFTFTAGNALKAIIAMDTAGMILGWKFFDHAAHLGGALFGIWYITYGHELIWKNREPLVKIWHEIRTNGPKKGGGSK
Sequence of UniProt Q9UM07 (whole entry, looked up): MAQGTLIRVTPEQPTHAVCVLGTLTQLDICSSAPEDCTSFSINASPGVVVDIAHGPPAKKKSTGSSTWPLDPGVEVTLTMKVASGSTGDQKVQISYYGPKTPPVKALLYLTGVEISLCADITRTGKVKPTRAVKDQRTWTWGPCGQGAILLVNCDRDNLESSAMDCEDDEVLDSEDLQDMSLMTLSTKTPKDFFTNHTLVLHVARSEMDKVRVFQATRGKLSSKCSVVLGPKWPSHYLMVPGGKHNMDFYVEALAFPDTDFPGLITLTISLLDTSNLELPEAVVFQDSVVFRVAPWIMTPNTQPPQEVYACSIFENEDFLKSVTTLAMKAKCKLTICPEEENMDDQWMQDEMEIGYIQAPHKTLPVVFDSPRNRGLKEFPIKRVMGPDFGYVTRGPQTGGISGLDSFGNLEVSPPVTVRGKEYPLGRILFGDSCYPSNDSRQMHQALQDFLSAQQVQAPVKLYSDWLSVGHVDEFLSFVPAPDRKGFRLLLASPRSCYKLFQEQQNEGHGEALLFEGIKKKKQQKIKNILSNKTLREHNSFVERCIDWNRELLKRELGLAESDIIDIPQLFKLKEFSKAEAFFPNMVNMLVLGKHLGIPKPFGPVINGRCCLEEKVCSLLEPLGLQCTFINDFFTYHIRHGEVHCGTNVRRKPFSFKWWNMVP
Sequence of UniProt O43570 (whole entry, looked up): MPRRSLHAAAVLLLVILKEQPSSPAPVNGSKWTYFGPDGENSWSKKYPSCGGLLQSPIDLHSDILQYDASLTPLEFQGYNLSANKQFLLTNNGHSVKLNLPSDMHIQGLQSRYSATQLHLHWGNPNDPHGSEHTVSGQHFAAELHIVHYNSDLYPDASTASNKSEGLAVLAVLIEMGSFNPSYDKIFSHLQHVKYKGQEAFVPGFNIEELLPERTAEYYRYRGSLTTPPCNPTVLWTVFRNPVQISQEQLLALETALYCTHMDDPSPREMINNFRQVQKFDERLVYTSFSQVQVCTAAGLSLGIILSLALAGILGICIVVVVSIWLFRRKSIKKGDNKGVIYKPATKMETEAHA
Sequence of UniProt P45983 (whole entry, looked up): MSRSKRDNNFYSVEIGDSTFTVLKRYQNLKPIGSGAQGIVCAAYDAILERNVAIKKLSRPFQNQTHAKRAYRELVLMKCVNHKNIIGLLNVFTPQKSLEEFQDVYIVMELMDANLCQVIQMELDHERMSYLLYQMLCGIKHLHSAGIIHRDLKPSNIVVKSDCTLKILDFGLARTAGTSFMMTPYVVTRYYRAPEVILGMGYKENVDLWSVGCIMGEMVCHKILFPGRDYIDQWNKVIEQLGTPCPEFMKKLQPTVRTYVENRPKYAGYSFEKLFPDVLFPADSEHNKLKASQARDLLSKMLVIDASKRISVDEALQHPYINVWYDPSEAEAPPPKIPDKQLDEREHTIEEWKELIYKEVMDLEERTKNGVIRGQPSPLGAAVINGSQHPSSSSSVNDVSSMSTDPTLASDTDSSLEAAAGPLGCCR
Sequence of UniProt Q13177 (whole entry, looked up): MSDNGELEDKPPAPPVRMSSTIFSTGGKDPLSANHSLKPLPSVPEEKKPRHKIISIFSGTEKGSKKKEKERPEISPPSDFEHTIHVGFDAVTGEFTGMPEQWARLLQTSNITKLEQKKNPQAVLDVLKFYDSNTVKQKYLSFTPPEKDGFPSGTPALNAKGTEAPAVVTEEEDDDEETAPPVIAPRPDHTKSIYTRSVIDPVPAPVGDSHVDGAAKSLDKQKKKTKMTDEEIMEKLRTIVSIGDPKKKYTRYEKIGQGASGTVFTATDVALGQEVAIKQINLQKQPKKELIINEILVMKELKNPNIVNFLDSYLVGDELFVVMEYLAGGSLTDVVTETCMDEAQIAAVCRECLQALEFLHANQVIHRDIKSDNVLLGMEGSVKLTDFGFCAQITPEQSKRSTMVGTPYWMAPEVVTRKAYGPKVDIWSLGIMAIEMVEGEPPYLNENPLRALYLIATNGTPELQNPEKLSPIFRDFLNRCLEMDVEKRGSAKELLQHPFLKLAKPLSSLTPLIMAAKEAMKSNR
Sequence of UniProt P08069 (whole entry, looked up): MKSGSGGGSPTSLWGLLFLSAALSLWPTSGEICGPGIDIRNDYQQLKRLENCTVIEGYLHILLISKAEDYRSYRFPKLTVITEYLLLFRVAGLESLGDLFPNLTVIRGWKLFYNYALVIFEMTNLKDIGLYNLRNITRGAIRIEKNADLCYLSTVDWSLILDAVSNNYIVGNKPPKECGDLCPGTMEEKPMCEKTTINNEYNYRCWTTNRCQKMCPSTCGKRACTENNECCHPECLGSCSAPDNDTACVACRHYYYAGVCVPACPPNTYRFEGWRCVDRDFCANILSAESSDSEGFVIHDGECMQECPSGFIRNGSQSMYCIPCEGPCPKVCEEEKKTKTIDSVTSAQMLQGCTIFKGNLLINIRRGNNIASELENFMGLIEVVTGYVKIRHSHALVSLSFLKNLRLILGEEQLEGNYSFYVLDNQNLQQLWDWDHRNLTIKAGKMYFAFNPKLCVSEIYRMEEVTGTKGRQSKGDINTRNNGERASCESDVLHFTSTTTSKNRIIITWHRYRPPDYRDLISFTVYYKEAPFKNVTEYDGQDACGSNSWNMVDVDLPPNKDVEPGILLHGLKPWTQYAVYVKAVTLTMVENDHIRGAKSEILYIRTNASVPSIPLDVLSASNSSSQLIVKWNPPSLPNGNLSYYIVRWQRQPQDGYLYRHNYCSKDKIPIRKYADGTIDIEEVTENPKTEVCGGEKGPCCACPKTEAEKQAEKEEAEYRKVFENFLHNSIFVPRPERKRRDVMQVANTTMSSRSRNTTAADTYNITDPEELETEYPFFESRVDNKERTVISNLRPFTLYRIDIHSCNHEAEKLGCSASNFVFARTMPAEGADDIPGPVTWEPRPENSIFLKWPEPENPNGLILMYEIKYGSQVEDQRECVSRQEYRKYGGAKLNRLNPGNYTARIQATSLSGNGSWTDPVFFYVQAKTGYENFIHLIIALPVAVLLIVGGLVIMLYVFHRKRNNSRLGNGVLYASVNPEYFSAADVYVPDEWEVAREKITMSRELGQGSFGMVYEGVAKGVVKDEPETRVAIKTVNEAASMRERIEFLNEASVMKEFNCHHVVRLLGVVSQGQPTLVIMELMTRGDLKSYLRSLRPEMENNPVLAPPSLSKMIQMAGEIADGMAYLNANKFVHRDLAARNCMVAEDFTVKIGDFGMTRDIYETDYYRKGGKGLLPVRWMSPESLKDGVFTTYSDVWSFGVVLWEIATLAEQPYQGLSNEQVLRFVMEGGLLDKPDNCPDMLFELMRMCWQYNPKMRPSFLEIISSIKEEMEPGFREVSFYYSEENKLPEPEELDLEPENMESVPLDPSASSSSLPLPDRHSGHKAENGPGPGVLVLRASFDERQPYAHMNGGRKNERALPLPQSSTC
Sequence of UniProt Q9Y5Z0 (whole entry, looked up): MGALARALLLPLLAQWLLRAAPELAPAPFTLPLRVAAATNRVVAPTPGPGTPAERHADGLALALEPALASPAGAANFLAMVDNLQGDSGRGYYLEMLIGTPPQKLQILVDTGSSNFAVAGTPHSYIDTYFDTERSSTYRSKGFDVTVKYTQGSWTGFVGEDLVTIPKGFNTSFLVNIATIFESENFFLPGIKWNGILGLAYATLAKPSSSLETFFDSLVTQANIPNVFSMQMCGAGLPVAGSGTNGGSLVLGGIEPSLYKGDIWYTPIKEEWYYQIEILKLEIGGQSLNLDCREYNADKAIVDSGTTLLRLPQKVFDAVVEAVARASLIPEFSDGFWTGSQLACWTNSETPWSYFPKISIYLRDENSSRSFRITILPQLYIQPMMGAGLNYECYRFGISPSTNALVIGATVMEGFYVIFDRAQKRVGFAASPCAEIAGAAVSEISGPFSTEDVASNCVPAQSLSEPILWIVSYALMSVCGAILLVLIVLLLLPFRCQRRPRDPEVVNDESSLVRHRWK
Sequence of UniProt P28335 (whole entry, looked up): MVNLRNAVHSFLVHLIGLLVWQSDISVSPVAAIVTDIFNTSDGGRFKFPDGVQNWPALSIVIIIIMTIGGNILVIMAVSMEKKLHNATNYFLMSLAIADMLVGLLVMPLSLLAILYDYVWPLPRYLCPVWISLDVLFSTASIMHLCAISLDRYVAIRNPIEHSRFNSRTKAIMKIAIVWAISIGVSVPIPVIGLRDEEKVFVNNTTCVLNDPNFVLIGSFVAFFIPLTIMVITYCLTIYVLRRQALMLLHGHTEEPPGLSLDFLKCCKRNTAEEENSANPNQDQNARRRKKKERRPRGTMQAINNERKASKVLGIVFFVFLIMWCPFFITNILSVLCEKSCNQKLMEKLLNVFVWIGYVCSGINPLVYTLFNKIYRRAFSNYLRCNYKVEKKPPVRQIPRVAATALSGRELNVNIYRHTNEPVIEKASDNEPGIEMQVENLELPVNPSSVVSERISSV

| Compound | target or system | assay | test system | setting | scale | endpoint | result |
| --- | --- | --- | --- | --- | --- | --- | --- |
| CC[C@H](C)[C@@H]([C@@H](CC(=O)N1CCC[C@H]1[C@H](OC)[C@@H](C)C(=O)N[C@H](C)[C@@H](O)c1ccccc1)OC)N(C)C(=O)[C@@H](NC(=O)[C@H](C(C)C)N(C)C(=O)OCc1ccc(NC(=O)[C@H](CCCNC(N)=O)NC(=O)[C@@H](NC(=O)CCCCCN2C(=O)CC(SC[C@H](NC(=O)[C@H](CC(=O)O)NC(=O)[C@H](Cc3ccc(O)cc3)NC(=O)[C@H](Cc3c[nH]c4ccccc34)NC(=O)[C@@H](N)CCCNC(=N)N)C(=O)O)C2=O)C(C)C)cc1)C(C)C (stereo partly drawn) |  |  | C57BL/6 mouse, healthy, kidney | intraperitoneal, 2.5 mg/kg, 1 h |  | concentration | not detected |
| CS(C)(=O)=Nc1ccc(-c2ccc(-c3nc4cc(O[C@@H]5CO[C@H]6[C@@H]5OC[C@H]6O)[nH]c4cc3F)cc2)cc1 | ACE (Homo sapiens, UniProt P12821) | enzyme activity, inhibitor |  | 10 µM |  | inhibition | 88% |
| COCC1CCCCN1C(=O)n1cc(C(O)(c2ccccc2)c2ccccc2)nn1 (stereo not drawn) | Presenilin-associated rhomboid-like protein, mitochondrial (Parl, Mus musculus, UniProt Q5XJY4) | probe labelling, inhibitor, competitive ABPP-SILAC, measured: Parl | mouse T cells | concentration not given, 4 h, in situ, single peptide | relative to: treated over DMSO, lower = more inhibition | SILAC ratio | 1.14 and 1.27 and 1.48 and 1.66 and 1.84 |
| CCCCC/C=C\C/C=C\C/C=C\C/C=C\CCCC(=O)NCCc1ccc(O)c(O)c1 | Trpv1 (Mus musculus, UniProt Q704Y3, T551S) | ion current, agonist, whole-cell patch clamp |  | T551S |  | Hill coefficient | 1.59 ± 0.39 |
| COc1ccccc1-c1n[nH]c2nc(NC3CCN(C(=O)Cc4ccc(F)cc4F)CC3)ncc12 |  | bead binding, competition bead pull-down, measured: LINJ.30.1440 | Leishmania donovani axenic amastigote extract | 10 µM | relative to: vehicle | relative abundance | 0.93 |
| N[C@H](C(=O)N1CCCC1)C1CCN(c2nccc3c(-c4ncc(Cl)cc4Cl)cccc23)CC1 | PADI4 (Homo sapiens, UniProt Q9UM07) | enzyme activity |  | 0.6144 µM, high-affinity site, with: Ca2+ 1.5 mM |  | kcat | 1.18 s⁻¹ and 1.23 s⁻¹ |
| Cc1cc(C(=O)Nc2nc3cccc(C)c3n2[C@H]2CCCCN(C(=O)/C=C/CN(C)C)C2)ccn1 | Trypanosoma brucei | propidium iodide flow cytometry | bloodstream form | concentration not given, 6 h |  | cells in sub-G0 phase | 1.12% |
| Nc1ccc(/C=C/C(=O)N2CCc3c(oc4c(-c5ccc(F)cc5)cc(-c5ccc(C(=O)N6CCC(F)(F)CC6)cn5)cc34)C2)cn1 | Tyrosine-protein kinase ABL1, phosphorylated (ABL1, Homo sapiens, UniProt P00519, T315I) | binding, competition with immobilised ligand |  | 1 µM |  | remaining binding | 100% |
| O=C1NC2(CC2)COc2ncc(F)cc2[C@H]2COCCN2c2ccn3ncc1c3n2 |  |  | Sprague-Dawley rat, female, serum | oral, 2.5 mg/kg/day, 4 weeks daily, end of recovery period |  | pancreatic amylase activity | 1550 ± 398 U/L |
| C[C@H](NCc1ccc(-c2ccc(C(F)(F)F)cc2)cc1)C(N)=O | PAK2 (Homo sapiens, UniProt Q13177) | cell-free assay, competition with immobilised ligand |  | 1 µM |  | inhibition | 22% |
| CC(C)[C@H]1NC(=O)C[C@H]2/C=C/CCSSC[C@@H](NC1=O)C(=O)N[C@H](Cc1cccc3ccccc13)C(=O)NCC(=O)O2 | MAPK8 (Homo sapiens, UniProt P45983) | enzyme activity, inhibitor |  | 10 µM |  | inhibition | -12.8% |
| CCOC(=O)[C@@H]1Cc2c(cc([N+](=O)[O-])cc2[N+](=O)[O-])[C@H](O)[C@]12C(=O)Nc1ccc(Br)cc12 | MAP3K4 (Homo sapiens, UniProt Q9Y6R4) | binding, competition with immobilised ligand |  | 0.1 µM |  | remaining binding | 97% |
| C#CCCCCOc1ccc2c(c1)CCCN2C(=O)CCl | Beta-secretase 2 (BACE2, Homo sapiens, UniProt Q9Y5Z0) | mass spectrometry profiling | H460 cell lysate | 100 µM over 10 µM, UniProt Q9Y5Z0 | relative to: high over low concentration | reactivity ratio | 1.3 |
| CC(C)CC(O)(CC(C)C)c1cn(C(=O)N2CCCC2)nn1 | Alpha/beta hydrolase domain-containing protein 17B (Abhd17b, Mus musculus, UniProt Q7M759) | probe labelling, inhibitor, competitive ABPP-SILAC, measured: Fam108b1 | mouse T cells | concentration not given, 4 h, in situ, single peptide | relative to: treated over DMSO, lower = more inhibition | SILAC ratio | 1.18 and 1.35 and 1.23 and 1.22 and 1.3 |
| Cc1cc(=O)oc2cc(OCCCCCC[Se]C#N)ccc12 | CA12 (Homo sapiens, UniProt O43570) | stopped-flow CO2 hydration |  |  | relative to: Ki CA I over Ki CA XII | selectivity ratio | > 1290 |
| CC(C)(C)C(=O)OCOP(=O)(OCOC(=O)C(C)(C)C)C1CCCN(O)C1=O (stereo not drawn) | SNB-19 |  |  |  |  | GI50 | 0.551 µM |
| O=C1NC(=O)c2c1c1cc(F)c[n+]3c1c1c2c2cc(O)ccc2[n]1[Ru-4]312([N]=C=S)[S+]3CC[S+]1CC[S+]2CC3 (stereo not drawn) | Insulin-like growth factor 1 receptor, activated (IGF1R, Homo sapiens, UniProt P08069) | enzyme activity |  | 100 nM, human enzyme, with: 10 µM ATP | relative to: untreated | remaining activity | 43% |
| CCc1nnc(-c2c(OC)cc(-c3cnc4cc(-c5cnn(C)c5)ccn34)cc2OC)o1 | HTR2A (Homo sapiens, UniProt P28223) | agonist radioligand, radioligand binding |  | 10 µM, SafetyScreen44 5-HT2A replicate 2 | lower = stronger displacement | remaining binding | 113% |
| CN(C)[C@H]1C[C@@]23CC[C@@]4(O2)C(=CC[C@]2(C)[C@@H](c5ccc6ccncc6c5)CC[C@H]24)C=C3[C@@H](O)[C@@H]1O | PKN1 (Homo sapiens, UniProt Q16512) | ATP probe labelling, inhibitor, KiNativ profiling |  | 1 µM |  | inhibition | -6.9% |
| Cc1cc(Oc2nc(N3CC[C@@H](c4ccncc4)C3)ncc2F)[nH]n1 | A204 | cell proliferation | muscle cancer |  |  | IC50 | 36.3 µM |
| CC[C@H](C)[C@H](NC(=O)[C@H](CCCNC(=N)N)NC(=O)[C@H](CCCNC(=N)N)NC(=O)[C@H](CC(C)C)NC(=O)[C@H](Cc1ccccc1)NC(=O)CNC(=O)CNC(=O)[C@@H](N)Cc1ccc(O)cc1)C(=O)N[C@@H](CCCNC(=N)N)C(=O)N1CCC[C@H]1C(=O)N[C@@H](CCCCN)C(=O)N[C@@H](CC(C)C)C(=O)N[C@@H](CCCCN)C(=O)O | GPR139 (Homo sapiens, UniProt Q6DWJ6) | G protein activation, agonist, BRET, measured: Gα11 | HEK-293T/17 | 40 µM | relative to: GαoA response | Emax | 59.5% |
| COc1ccccc1-c1n[nH]c2nc(N[C@H]3CC[C@H](NS(=O)(=O)CC(C)C)CC3)ncc12 |  | bead binding, competition bead pull-down, measured: LINJ.25.1220 | Leishmania donovani extract | 10 µM | relative to: vehicle | relative abundance | 1.22 |
| CN(C)CCCN1C(=O)CSC1c1ccccc1 (stereo not drawn) | uncharacterized protein (Anopheles gambiae, UniProt Q7QFG0) | Ellman |  | 1000 µM, with: acetylthiocholine |  | IC50 | inactive |
| Cc1cc(Nc2nc(C[C@@]3(C(=O)O)CCN(Cc4cccc(Cl)c4F)[C@H](C)C3)cc(C)c2F)[nH]n1 | HTR2C (Homo sapiens, UniProt P28335) | agonist |  | 10 µM |  | activation | 0.41% |
| OC1Cc2ccccc2CC1N1CCC2(C=Cc3ccc(Br)cc32)CC1 (racemic) | Vesicular acetylcholine transporter (Rattus norvegicus, UniProt Q62666) |  | rat liver (sigma2) |  | relative to: Ki sigma2 over Ki VAChT | selectivity ratio | 32 |
| C[C@]1(COC(=O)Cc2ccc(O)c(O)c2)[C@H](C(=O)O)N2C(=O)/C(=C/c3ccccn3)[C@H]2S1(=O)=O | Beta-lactamase (blaOXA-33, Acinetobacter baumannii, UniProt Q8RLA6) | inhibitor |  |  |  | kinact | 0.022 ± 0.002 s⁻¹ |
| CC[C@H](C)[C@H](NC(=O)[C@H](CO)NC(=O)[C@H](Cc1ccc(O)cc1)NC(=O)[C@H](Cc1ccc(O)cc1)NC(=O)[C@H](CC(N)=O)NC(=O)CNC(=O)[C@H](CO)NC(=O)[C@H](Cc1ccc(O)cc1)NC(=O)[C@H](CO)NC(=O)[C@H](CO)NC(=O)[C@H](CC(N)=O)NC(=O)COCCOCCNC(=O)CN1CCN(CC(=O)O)CCN(CC(=O)O)CCN(CC(=O)O)CC1)C(=O)N[C@@H](CC(C)C)C(N)=O [copper-64 labelled] |  | dynamic PET | tamoxifen-induced PDAC mouse model, pancreas | 0.4 min, CLDN4-expressing tumours |  | maximum pancreas uptake | 20 %IA/cc |

Excerpt of the above:
| Compound | target or system | assay | test system | setting | scale | endpoint | result |
| --- | --- | --- | --- | --- | --- | --- | --- |
| CCCCC/C=C\C/C=C\C/C=C\C/C=C\CCCC(=O)NCCc1ccc(O)c(O)c1 | Trpv1 (Mus musculus, UniProt Q704Y3, T551S) | ion current, agonist, whole-cell patch clamp |  | T551S |  | Hill coefficient | 1.59 ± 0.39 |
| COc1ccccc1-c1n[nH]c2nc(NC3CCN(C(=O)Cc4ccc(F)cc4F)CC3)ncc12 |  | bead binding, competition bead pull-down, measured: LINJ.30.1440 | Leishmania donovani axenic amastigote extract | 10 µM | relative to: vehicle | relative abundance | 0.93 |
| N[C@H](C(=O)N1CCCC1)C1CCN(c2nccc3c(-c4ncc(Cl)cc4Cl)cccc23)CC1 | PADI4 (Homo sapiens, UniProt Q9UM07) | enzyme activity |  | 0.6144 µM, high-affinity site, with: Ca2+ 1.5 mM |  | kcat | 1.18 s⁻¹ and 1.23 s⁻¹ |
